Assay results from different studies.
A part holds a random share of what one study measured. Changes are numbered by the printed parent chain.

Block 1
Target: CREBZF, bZIP domain (human)
Technique: DHFR protein complementation
Medium: yeast
Notes: single substitutions, most at no-binding floor
Relative to: wild-type JUN-FOS pair
Reading: higher = stronger binding
Parent: JUN, bZIP domain (human); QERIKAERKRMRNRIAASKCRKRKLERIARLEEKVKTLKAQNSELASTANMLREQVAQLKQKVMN; partner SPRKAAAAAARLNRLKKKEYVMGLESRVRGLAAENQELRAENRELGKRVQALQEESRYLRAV
| Change | binding fitness [natural log] |
| --- | --- |
| T48H | -1.49 |
| T37G | -1.42 |
| A40G | -1.46 |
| L52M | -1.56 |
| R53H | -1.49 |
| M51G | -1.44 |
| Q55Y | -1.52 |
| E44G | -1.47 |
| S47W | -1.47 |
| T48K | -1.56 |
| L31I | -1.49 |
| K34R | -1.53 |
| L38R | -1.5 |
| A40F | -1.49 |
| L31R | -1.52 |
| L31N | -1.62 |
| N42Y | -1.48 |
| S43V | -1.5 |

Block 2
Target: OGT, full length, His-tagged (human)
Technique: phage display, sequencing
Medium: in vitro
Tested at: 1 µg OGT
Notes: single substitutions, 15-mer displayed peptide, unchanged parent 19.6
Relative to: input library
Reading: higher = stronger binding
Parent: peptide; TAPFYPPAYQIQVFK
| Change | fold enrichment [fold] |
| --- | --- |
| TAPFYPPAYQIAVFK [Q12A] | 2.14 |
| TAPFYPPAYQIQHFK [V13H] | 4.27 |
| TAPFYPPAYGIQVFK [Q10G] | 0.748 |
| TAPFYPPAYQQQVFK [I11Q] | 0.668 |
| TAPFYWPAYQIQVFK [P6W] | 2.72 |
| TAPFYPLAYQIQVFK [P7L] | 0.602 |
| TAPQYPPAYQIQVFK [F4Q] | 11 |
| TAPFYPYAYQIQVFK [P7Y] | 1.93 |
| TAPFYPPAYQRQVFK [I11R] | 0.483 |
| TAKFYPPAYQIQVFK [P3K] | 21.6 |
| TAPFYPPAYQAQVFK [I11A] | 0.571 |
| TAPEYPPAYQIQVFK [F4E] | 8.8 |
| TAPFLPPAYQIQVFK [Y5L] | 1.61 |
| TAPFRPPAYQIQVFK [Y5R] | 1.69 |
| TAPLYPPAYQIQVFK [F4L] | 17.6 |
| TAPFYPPAYHIQVFK [Q10H] | 1.75 |
| TAPFYPPAYQIQEFK [V13E] | 0.782 |

Block 3
Target: Interferon regulatory factor 5, full length, phosphomimetic (IRF5, Homo sapiens, UniProt Q13568-2, residues 1-514, S451D/S453D/S456D/S462D)
Technique: protein-binding microarray
Form: double-stranded DNA, one strand shown
Medium: in vitro
Tested at: 940 nM top
Notes: 60-bp whole probe
Together with: salmon DNA 0.4 mg/ml
Relative to: random background probes
Reading: higher = stronger binding
Constant ends, left off below: GCCTAGCAC … GTCTTGATTCGCTTGACGCTGCTG
| Sequence | fitted relative affinity [z-score] |
| --- | --- |
| TTAGGACTGGACTACCGGTTAGTGCTA | -0.558 |
| GACGGTTTCAGGTATCGGGACGTGCTA | 4.88 |
| TTAGGTATCCTTCTCATTTAGTGCTAG | 0.98 |
| GACGGTATTCTTATCCTGACGTGCTAG | 0.562 |
| GCTTCTACACAGAGCATGGGGTGCTAG | -0.241 |
| CTGCTCTGTGCACAGAAGACGTGCTAG | -0.185 |
| TTAGGTTACCTTTTCCTTTAGTGCTAG | 0.305 |
| TCACTACTGTATTTGGCACTGTGCTAG | 0.231 |
| TTAGATTTCCGGACTGGATTAGTGCTA | -0.228 |
| TCAGTTTTCAGTCCTGGACTGTGCTAG | 1.16 |
| TTAGGTTTCCTTTTGCTTTAGTGCTAG | 2.37 |
| TTAGGTTTCGGTAACGGTTAGTGCTAG | 12.7 |
| TTAGGTCTCCTGTTCCTTTAGTGCTAG | 0.149 |
| GACGAACTGGCGTTTCGAGACGTGCTA | 0.128 |
| GGCGGTTTCGGTATCGGGACGTGCTAG | 14.2 |
| GACGATATCGGGTATCGCGACGTGCTA | -0.147 |
| TTAGGTTTGGGGTATCGGTTAGTGCTA | 3.14 |
| GACGGTCTCGGTCTTGGGACGTGCTAG | 3.57 |
| GACGGTCTCGTTATCCTGACGTGCTAG | 2.22 |
| GACCGTTTCCTACTGCTGACGTGCTAG | 0.382 |

Block 4
Target: ABI1, truncated, D143A, DHFR fusion (Arabidopsis thaliana)
Technique: DHFR PCA, deep sequencing
Medium: yeast
Notes: methotrexate growth selection, single substitutions
Together with: (+)-ABA 4.8 µM
Relative to: wild-type fitted maximum
Reading: higher = stronger binding
Parent: PYL1, truncated, DHFR fusion (Arabidopsis thaliana); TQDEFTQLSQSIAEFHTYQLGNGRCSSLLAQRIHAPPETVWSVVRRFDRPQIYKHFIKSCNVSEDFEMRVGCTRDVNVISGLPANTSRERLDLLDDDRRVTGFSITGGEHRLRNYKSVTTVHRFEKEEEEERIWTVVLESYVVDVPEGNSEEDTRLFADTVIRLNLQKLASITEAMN
| Change | relative binding score [%] |
| --- | --- |
| S26F | 40.8 |
| L29T | 12.8 |
| V70T | 45.9 |
| E64I | 48.3 |
| L166T | -1.25 |
| I57V | 69.5 |
| C25V | 78.8 |
| V137K | -29.2 |
| E174M | 29.2 |
| P146V | 7.96 |
| F47D | -15.8 |
| V62R | -1.04 |
| V121D | -6.41 |
| A35D | -2.49 |
| S42I | 13.9 |

Block 5
Target: CCND1, cyclin fold, Cln2 fusion (human)
Technique: yeast growth competition, sequencing
Medium: yeast
Notes: weak parent motif
Relative to: not given
Reading: higher = stronger binding
Parent: CDKN1C docking peptide (human); TSACRSLFGPVDH
| Change | normalised enrichment score |
| --- | --- |
| ASACRSLFGPVDH [T1A] | 0.865 |
| TSACASLFGPVDH [R5A] | -0.0976 |
| TSACKSLFGPVDH [R5K] | 0.106 |
| TSACRSLFGPADH [V11A] | 1.23 |
| TSACRSLFAPVDH [G9A] | 0.878 |
| TSACASAFGPVDH [R5A L7A] | 0.068 |
| TSACRSLAGPVDH [F8A] | 0.27 |
| TSACRSLFGAVDH [P10A] | 0.91 |
| TSACKSLLGPVDH [R5K F8L] | -0.256 |

Other studies, line by line
| Molecule | target | assay | test system | setting | how to read | quantity | value |
| --- | --- | --- | --- | --- | --- | --- | --- |
| PhoQ, residues 284 288 289 292 302 303 TLASMF | PhoP, residues 12 14 15 18 19 NFCKL (Escherichia coli, UniProt P23836) | Sort-seq, refers to: YFP reporter | E. coli | PhoQ-PhoP variant library, together with: 10 µM Mg2+ | relative to: high Mg2+ state, higher = stronger signaling | fold induction | 7.56 |

For quick reference, copied from above (block 5):
| Change | normalised enrichment score |
| --- | --- |
| TSACRSLFGPADH [V11A] | 1.23 |
| TSACKSLFGPVDH [R5K] | 0.106 |
| TSACRSLFAPVDH [G9A] | 0.878 |
| ASACRSLFGPVDH [T1A] | 0.865 |
